Measured values from different studies.
Parts stem from different laboratories: compare values within a part only. Positions count from the first letter of the parent shown.

Set 1
Target: RING finger protein unkempt homolog, zinc fingers 1-6, GST-SBP tag (UNK, Homo sapiens, UniProt Q9C0B0, residues 30-357)
Chain of UniProt Q9C0B0 (30-357, looked up): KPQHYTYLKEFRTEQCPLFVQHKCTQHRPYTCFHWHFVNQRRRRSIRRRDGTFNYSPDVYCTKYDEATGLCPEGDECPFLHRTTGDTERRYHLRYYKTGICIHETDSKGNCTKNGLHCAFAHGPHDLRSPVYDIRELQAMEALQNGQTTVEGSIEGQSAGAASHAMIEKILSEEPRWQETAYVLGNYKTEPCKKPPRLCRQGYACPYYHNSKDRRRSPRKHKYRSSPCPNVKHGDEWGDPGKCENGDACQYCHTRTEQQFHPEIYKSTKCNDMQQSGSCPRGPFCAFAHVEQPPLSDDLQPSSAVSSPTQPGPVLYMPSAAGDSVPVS
Method: RNA Bind-n-Seq
Molecule type: RNA
Sample: in vitro
Tested at: not given
Notes: RNA with constant flanks, human and mouse sites, ends assumed
Baseline: input RNA pool
Direction: higher = stronger binding
Measurement: bound/input enrichment
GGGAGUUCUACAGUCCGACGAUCUUCUUAUACCUGGAUUUGGAAUUGAGUAUUCUUGAAAUGCCUAUAUUUGAGGAAGAUAAAUUAGGAGUUUAGAGAGCCAUAGUAAUACACUGAACGUUUCUUGUUAAAACUGUAACCUUGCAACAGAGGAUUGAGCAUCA: 2.73 ratio
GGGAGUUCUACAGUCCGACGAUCGCCCGAGGCCUGAAGGAUGCUAACCAAAUUCGAGACGAAGAGCGCGCGGGUCAAAGGCCUUAGUUUUCAUCCUAAAAGACCCUGGAUCCUGACCAGUUUACACAAUGGGGUCAUCCAGUUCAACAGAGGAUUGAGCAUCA: 0.178 ratio
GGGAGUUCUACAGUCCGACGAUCCUUAUUGGACGACGAUAUGAUGACCCUGAAGUACAGAAAGACACUAAGAAUGUUCCUUUUAAAAUUGUCCGUGCCUCCAAUGGUGAUGCUUGGGUUGAGGCUCAUGGAAAACUCUAUUCUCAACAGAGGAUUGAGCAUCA: 0.276 ratio
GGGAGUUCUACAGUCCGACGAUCAAUGCAGUAGAGGCCAUUCAUAGAGCUGUGGAAUUCAAUCCUCAUGUGCCAAAAUACCUACUAGAAAUGAAAAGCUUAAUCCUACCCCCAGAACAUAUCCUGAAGAGAGGAGACAGUGAACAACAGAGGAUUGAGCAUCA: 2.09 ratio
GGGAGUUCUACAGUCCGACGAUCUGCUACUCAAAUAUUUAUGAACAGAGAGGAAAUGAGGCCACAGAAGGGAGUGGACUACUUUUAAACAGCACUGGUGACCUAAUGAAGAAAAAUUAUUUACAUAAUUUCUGUAGUCAAGUUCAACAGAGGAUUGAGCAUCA: 0.316 ratio
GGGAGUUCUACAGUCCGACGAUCCUCUGGGCUGUACCAAUGAGGCAGAGCUGUCCAUGGGCCCAUGGCAGACCUGUGAGGAAGACCCAGAACUGAAUACUCCCACAGAUGUUGUGGCUGAUGCUGAUGCCCGUCAUUGGUUACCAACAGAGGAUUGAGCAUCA: 0.204 ratio
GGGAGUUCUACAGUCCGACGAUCGCGGUCCCUACAGUCCUGGUGACUCCCUUAGGUGCCCUUGGAGUACCGUUUGGGUCCAUUUUAGCUUCUUACCUUCUGAAGGAAAAGCUCAACAUCUUGGGCAAGUUGGGCUGUCUGCUACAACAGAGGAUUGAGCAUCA: 1.65 ratio
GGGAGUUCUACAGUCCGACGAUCGACAUCCUCUAUGCCCGGCAGAAGGUUGUUGUCACGGCAAAAGCCUUUGGCCUACAAGCCAUAGAUCUUGUGUACAUUGACUUCCGAGAUGAAGACGGACUUCUCAGACAGUCAAGGGAACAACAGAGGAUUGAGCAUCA: 0.235 ratio

Set 2
Target: CCNA1, cyclin fold, Cln2 fusion (human)
Method: yeast growth competition, sequencing
Sample: yeast
Notes: weak parent motif
Baseline: not given
Direction: higher = stronger binding
Measurement: normalised enrichment score
Parent: SCAPER docking peptide (human); SNARRSLNFGGST
L7E: 0.33
R4F: -0.0121
S1N: 0.574
F9H: 0.129
S1F: 0.941
N8D: 0.431
G11A: 0.751
S1Q: 0.477
G11V: 0.95
R5K F9L: -0.0764
N2P: 0.644
F9C: 0.0893

Further values, each from its own experiment
WDR43 (Homo sapiens, UniProt Q15061)  cross-linked residues (UTP18 (Homo sapiens, UniProt Q9Y5J1); cross-linking MS; cell fractions; with: DSSO): K384 to K329
PhoQ, residues 284 288 289 292 302 303 DDMDFR  fold induction (PhoP, residues 12 14 15 18 19 LHHSG (Escherichia coli, UniProt P23836); Sort-seq, item: YFP reporter; E. coli; PhoQ-PhoP variant library, with: 10 µM Mg2+; baseline: high Mg2+ state, higher = stronger signaling): 0.778
KTN1 (Homo sapiens, UniProt Q86UP2)  cross-linked residues (SSR3 (Homo sapiens, UniProt Q9UNL2); cross-linking MS; cell fractions; with: DSSO): K46 to K8
CALR (Homo sapiens, UniProt P27797)  cross-linked residues (NFE2L3 (Homo sapiens, UniProt Q9Y4A8); cross-linking MS; cell fractions; with: DHSO): E217 to E169
NDUFS5 (Homo sapiens, UniProt O43920)  cross-linked residues (NDUFA8 (Homo sapiens, UniProt P51970); cross-linking MS; cell fractions; with: DSSO): K101 to K14

A few entries again (set 2):
R4F: -0.0121
S1N: 0.574
